{"data": "Values quoted from earlier work as cited in several papers", "note": "Compare with care: the assays were run in different laboratories.", "chain of UniProt P25084 (whole entry, looked up)": "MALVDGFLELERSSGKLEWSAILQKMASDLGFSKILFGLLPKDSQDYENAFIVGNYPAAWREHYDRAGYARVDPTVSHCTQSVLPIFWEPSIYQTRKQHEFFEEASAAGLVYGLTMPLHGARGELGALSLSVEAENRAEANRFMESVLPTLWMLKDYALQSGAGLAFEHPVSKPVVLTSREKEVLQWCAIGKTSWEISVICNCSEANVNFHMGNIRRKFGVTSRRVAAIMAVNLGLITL"}
{"Structure (SMILES)": "CC[C@H](C)[C@H](NC(=O)[C@@H]1CCCN1C(=O)CNC(=O)[C@H](CC(C)C)NC(=O)[C@H](CCCCN)NC(=O)[C@H](CCCNC(=N)N)NC(=O)[C@H](Cc1c[nH]c2ccccc12)NC(=O)[C@H](C)NC(=O)[C@H](CC(N)=O)NC(=O)[C@H](CCCCN)NC(=O)[C@H](CC(C)C)NC(=O)[C@H](CCCCN)NC(=O)[C@H](CC(N)=O)NC(=O)[C@H](CCCNC(=N)N)NC(=O)[C@H](C)NC(=O)[C@H](CCCNC(=N)N)NC(=O)[C@H](CCCNC(=N)N)NC(=O)[C@H](Cc1ccccc1)NC(=O)[C@H](Cc1c[nH]c2ccccc12)NC(=O)CN)C(=O)N[C@H](C(=O)NCC(=O)N1CCC[C@H]1C(=O)N[C@@H](CC(C)C)C(=O)N[C@@H](CC(C)C)C(=O)N[C@H](C(=O)N[C@@H](CCCNC(=N)N)C(=O)O)[C@@H](C)O)C(C)C", "target or system": "Pseudomonas aeruginosa", "quantity": "MIC", "result": "4 µM"}
{"Structure (SMILES)": "CCCCCCCCCC(=O)CC(=O)Nc1ccccc1", "target or system": "Transcriptional activator protein LasR (lasR, Pseudomonas aeruginosa, UniProt P25084)", "test": "reporter gene, antagonist, lasI-lacZ reporter", "setting": "10 µM", "quantity": "inhibition", "result": "55%"}
{"Structure (SMILES)": "CC(=O)OC1C(=O)C2(C)C(O)CC3OCC3(OC(C)=O)C2C(OC(=O)c2cccc(OC(F)F)c2)C2(O)CC(OC(=O)C(O)C(C=C(C)C)NC(=O)OC(C)(C)C)C(C)=C1C2(C)C (stereo not shown)", "target or system": "MCF7", "test": "cytotoxicity", "quantity": "IC50", "result": "0.00034 µM"}
{"Structure (SMILES)": "CN(C)c1ncnc2c1ncn2[C@@H]1O[C@H](CO)[C@@H](NC(=O)[C@H](N)CSC(c2ccccc2)c2ccccc2)[C@H]1O", "target or system": "Vero", "test": "MTT", "quantity": "CC50", "result": "46 µM"}
{"Structure (SMILES)": "CC(=O)OC12COC1CC(O)C1(C)C(=O)C(OC(=O)C3CC3)C3=C(C)C(OC(=O)C(O)C(C=C(C)C)NC(=O)OC(C)(C)C)CC(O)(C(OC(=O)c4cccc(OC(F)(F)F)c4)C21)C3(C)C (stereo not shown)", "target or system": "MCF7", "test": "cytotoxicity", "quantity": "IC50", "result": "0.00056 µM"}
{"Structure (SMILES)": "CC[C@H](C)[C@H](NC(=O)[C@H](CCCN)NC(=O)[C@H](CCCNC(=N)N)NC(=O)[C@@H]1CCCN1C(=O)[C@@H]1CCCN1C(=O)[C@H](CCCNC(=N)N)NC(=O)[C@@H]1CCCN1C(=O)[C@H](CCCNC(=N)N)NC(=O)[C@@H]1CCCN1C(=O)[C@H](CC(C)C)NC(=O)[C@H](Cc1ccc(O)cc1)NC(=O)[C@@H]1CCCN1C(=O)[C@@H]1CCCN1C(=O)[C@H](CCCCN)NC(=O)[C@H](CC(=O)O)NC(=O)[C@@H](N)C(C)C)C(=O)N[C@@H](Cc1ccc(O)cc1)C(=O)N[C@@H](CC(N)=O)C(=O)N[C@@H](CCCN)C(N)=O", "system": "mouse", "setting": "intraperitoneal, dose not given", "quantity": "elimination half-life", "result": "~14 min"}
{"Structure (SMILES)": "CC[C@H](C)[C@H](NC(=O)CNC(=O)[C@H](CCCCN)NC(=O)[C@H](CCCCN)NC(=O)[C@H](CCC(N)=O)NC(=O)[C@H](CC(C)C)NC(=O)[C@H](CCCCN)NC(=O)[C@H](CC(C)C)NC(=O)[C@H](CC(C)C)NC(=O)[C@H](CCCCN)NC(=O)[C@H](CCCCN)NC(=O)[C@H](CC(C)C)NC(=O)[C@H](CC(C)C)NC(=O)[C@H](CCCCN)NC(=O)[C@H](CCSC)NC(=O)[C@H](C)NC(=O)[C@H](CCCCN)NC(=O)[C@@H]1CCCN1C(=O)[C@H](C)N)C(=O)O", "target or system": "human keratinocytes", "how to read": "up to", "quantity": "highest non-toxic concentration", "result": "≤ 200 µM"}
{"Structure (SMILES)": "CC(=O)OC12COC1CC(O)C1(C)C(=O)C(OC(=O)N(C)C)C3=C(C)C(OC(=O)C(O)C(C=C(C)C)NC(=O)OC(C)(C)C)CC(O)(C(OC(=O)c4cccc(OC(F)(F)F)c4)C21)C3(C)C (stereo not shown)", "target or system": "MCF7", "test": "cytotoxicity", "quantity": "IC50", "result": "0.00028 µM"}
{"Structure (SMILES)": "COc1ccc(CC(=O)Nc2cc(-c3ccccc3)nc3ncnn23)cc1", "target or system": "HepG2", "quantity": "CC50", "result": "> 100 µM"}
{"Structure (SMILES)": "CCC(=C(c1ccc(O)cc1)c1ccc(O)cc1)[c-]1cccc1.[Fe+2].c1cc[cH-]c1", "target or system": "NCI60 human tumour cell panel", "test": "cell killing", "setting": "mean-graph midpoint", "quantity": "CC50", "result": "22.9 µM"}
{"Structure (SMILES)": "CC[C@H](C)[C@H](NC(=O)CNC(=O)[C@H](CC(=O)O)NC(=O)[C@H](CCCNC(=N)N)NC(=O)[C@@H](NC(=O)[C@H](CC(N)=O)NC(=O)[C@H](CCCNC(=N)N)NC(=O)CNC(=O)[C@@H](NC(=O)[C@H](CCCCN)NC(=O)[C@H](CCC(=O)O)NC(=O)[C@H](CC(C)C)NC(=O)[C@H](CCCCN)NC(=O)[C@H](CCCCN)NC(=O)[C@H](Cc1c[nH]c2ccccc12)NC(=O)[C@H](CO)NC(=O)[C@@H]1CCCN1)C(C)C)[C@@H](C)CC)C(=O)N[C@H](C(=O)N[C@@H](CCCCN)C(=O)N[C@@H](C)C(=O)NCC(=O)N1CCC[C@H]1C(=O)N[C@H](C(=O)N[C@H](C(=O)N[C@@H](CCC(=O)O)C(=O)N[C@H](C(=O)N[C@@H](CC(C)C)C(=O)NCC(=O)O)C(C)C)C(C)C)C(C)C)[C@@H](C)CC", "target or system": "Staphylococcus aureus", "quantity": "MIC", "result": "64 µM"}
{"Structure (SMILES)": "Cc1ccc(Cn2cc(C(=O)NCCOCCO)c(=O)c3cc(C(=O)/C=C/c4ccc([N+](=O)[O-])o4)ccc32)cc1", "target or system": "Vero", "quantity": "CC50", "result": "3.4 µM"}
{"Structure (SMILES)": "Cc1ccc(CCNc2cc(-c3ccccc3)nc3ncnn23)cc1", "target or system": "HepG2", "quantity": "CC50", "result": "53 µM"}
{"note": "Some of these lines once more:"}
{"Structure (SMILES)": "CC[C@H](C)[C@H](NC(=O)CNC(=O)[C@H](CCCCN)NC(=O)[C@H](CCCCN)NC(=O)[C@H](CCC(N)=O)NC(=O)[C@H](CC(C)C)NC(=O)[C@H](CCCCN)NC(=O)[C@H](CC(C)C)NC(=O)[C@H](CC(C)C)NC(=O)[C@H](CCCCN)NC(=O)[C@H](CCCCN)NC(=O)[C@H](CC(C)C)NC(=O)[C@H](CC(C)C)NC(=O)[C@H](CCCCN)NC(=O)[C@H](CCSC)NC(=O)[C@H](C)NC(=O)[C@H](CCCCN)NC(=O)[C@@H]1CCCN1C(=O)[C@H](C)N)C(=O)O", "target or system": "human keratinocytes", "how to read": "up to", "quantity": "highest non-toxic concentration", "result": "≤ 200 µM"}
{"Structure (SMILES)": "CN(C)c1ncnc2c1ncn2[C@@H]1O[C@H](CO)[C@@H](NC(=O)[C@H](N)CSC(c2ccccc2)c2ccccc2)[C@H]1O", "target or system": "Vero", "test": "MTT", "quantity": "CC50", "result": "46 µM"}
